Experimental data gathered from unrelated publications.
“And” joins repeats or separate records; there may be more than shown. Numbers after ± are the reported error.

`COc1cc2c(Oc3ccc4[nH]c(C)cc4c3F)ccnc2cc1OCC1(N)CC1` — result for “incidence of adverse event”: 0% (measured: grade 3 influenza-like symptoms; paediatric high-risk refractory sarcoma; 8 mg).
The plasma concentration of `O=C1c2c(O)c(=O)ccn2N([C@@H]2c3ccccc3SCc3c2ccc(F)c3F)[C@@H]2COCCN12` is reported as 5.02 ng/mL (BALB/c mouse, plasma; oral, 5 mg/kg baloxavir marboxil every 12 h, 24 h).
With `Cc1nnc2n1-c1ccc(Cl)cc1C(c1ccccc1)=NC2` the AUC was 522 ± 36.1 ng·h/mL (human, female; 2 mg, day 22, after hop intake, mean).
`CCN(CC)C(=O)[C@@H]1C=C2c3cccc4[nH]cc(c34)C[C@H]2N(C)C1` has an AUC extrapolated of 2.22% and 1.6% and 1.67% and 3.42% and 3.55% and 2.54% and 2.8% and 2.68% (human; oral, 100 µg).
`Cc1ncc2n1-c1ccc(Cl)cc1C(c1ccccc1F)=NC2` has a fraction unbound of 0.034 (rapid equilibrium dialysis; rat, 10% plasma; 2 µM, 24 h, pH 7.4).
The plasma concentration of `CCCc1cc(O)c2c(c1)OC(C)(C)[C@@H]1CCC(C)=C[C@@H]21` is reported as 81 ± 18 ng/mL (LC-MS/MS; Scn1a+/− mice, both sexes, plasma; intraperitoneal, 3 mg/kg, after hyperthermia protocol).
`OCc1ncc2n1-c1ccc(Cl)cc1C(c1ccccc1F)=NC2` — result for “AUC(0-t) geometric mean ratio”: 80.6% (healthy volunteers, plasma; added: momelotinib; relative to: with momelotinib over alone).
For `O=C(O)CCC(CP(=O)(O)O)C(=O)O` (centres unmarked), the Cmax was 275000 ng/mL (Wistar rat, male, plasma; ip, 100 mg/kg).
`CN/C(=N\[N+](=O)[O-])NCc1cnc(Cl)s1`: “measured soil concentration” 0.05 mg/kg dry soil (test soil; 0.12 mg/kg nominal, 28 days).
For `C[C@H]1CN(C(=O)CC#N)[C@]12CCN(c1ncnc3[nH]ccc13)C2`, “subjects with influenza-like illness” read 12.5% (healthy human; oral, 3 mg single).
For `COc1ccc2c(c1)[C@]13CCCC[C@@H]1[C@H](C2)N(C)CC3`, the plasma concentration was 252 ng/mL and 608 ng/mL and 217 ng/mL and 411 ng/mL and 225 ng/mL (C57BL/6 mice, plasma; oral, 50 µg/g, 15 min).
`O=C1c2c(O)c(=O)ccn2N([C@@H]2c3ccccc3SCc3c2ccc(F)c3F)[C@@H]2COCCN12` has a CC50 of 7.1 µM (dog cells).
For `C#Cc1ccc2c(c1)C(c1ccccn1)=NCc1c(-c3cnco3)ncn1-2.Cl`, the solubility was 7220 µg/mL (shake flask; 50 mM phosphate buffer; 24 h, pH 3, 25 °C).
With `CC(C)(C)[C@H](NC(=O)C(F)(F)F)C(=O)N1C[C@H]2[C@@H]([C@H]1C(=O)N[C@H](C#N)C[C@@H]1CCNC1=O)C2(C)C` the intrinsic clearance was 31.1 mL/min/kg (human liver microsomes; scaled to liver).
With `COC(=O)[C@H]1[C@@H](OC(=O)c2ccccc2)C[C@@H]2CC[C@H]1N2C` the AUC(0-last) was 743 ± 43.2 ng·h/mL (LC-MS/MS; Sprague-Dawley rat, male, whole blood; intraperitoneal, 20 mg/kg, up to 180 min).
Under “feeling hot incidence”, `Cc1ncc2n1-c1ccc(Cl)cc1C(c1ccccc1F)=NC2` is recorded as 8.3% (healthy volunteers; oral, 5 mg, added: momelotinib 200 mg).
The CC50 of `NC(=O)c1nc(F)c[nH]c1=O` is reported as greater than 400 µM (dog cells).
With `CCN(CC)CCOc1ccc2c(c1)C(=O)c1cc(OCCN(CC)CC)ccc1-2` the CC50 was 19.9 µM (human cells; 48 (unit not given)).
The CC50 of `NC(=O)c1ncn([C@@H]2O[C@H](CO)[C@@H](O)[C@H]2O)n1` is reported as 340 µM (hamster cells).
With `CNC(C)Cc1ccc2c(c1)OCO2` (centres unmarked) the fraction unbound was 83.5 ± 4.7% (rapid equilibrium dialysis; human plasma; mean over all concentrations).

Excerpt of the above:
`CCN(CC)C(=O)[C@@H]1C=C2c3cccc4[nH]cc(c34)C[C@H]2N(C)C1` has an AUC extrapolated of 2.22% and 1.6% and 1.67% and 3.42% and 3.55% and 2.54% and 2.8% and 2.68% (human; oral, 100 µg).
The plasma concentration of `O=C1c2c(O)c(=O)ccn2N([C@@H]2c3ccccc3SCc3c2ccc(F)c3F)[C@@H]2COCCN12` is reported as 5.02 ng/mL (BALB/c mouse, plasma; oral, 5 mg/kg baloxavir marboxil every 12 h, 24 h).
